Experimental data collected from several papers.
Numbered parts are unrelated; each lists some results of a single study. Substitutions count along the parent as printed.

Block 1 — method: RNA Bind-n-Seq; form: RNA; matrix: in vitro; tested at: 365 nM; baseline: no-protein control; direction: higher = stronger binding; measurement: RBNS enrichment (R)
Target: RNA binding protein fox-1 homolog 2, RRM domain, GST-SBP tag (RBFOX2, Homo sapiens, UniProt O43251-10, residues 100-194)
Notes: natural RNA segment, single round, ends assumed
Constant ends, left off below: GGGAGUUCUACAGUCCGACGAUC … UGGAAUUCUCGGGUGCCAA
Target sequence (chain): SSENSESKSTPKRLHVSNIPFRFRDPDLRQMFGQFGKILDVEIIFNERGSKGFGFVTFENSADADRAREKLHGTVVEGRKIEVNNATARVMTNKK
CAGCUCCAAGACAAGAAUGAACCUGGCUGUGUCAGUCAUUUUGUCUUUUCCUUUUUUUUUUUUUUUUGCCACAUUGGCAGAGAUGGGACCUAAGGGUCCCACCCCUCACC: 0.794
GAUAGAGGCAACAUACUGUUAAGUCAUAUUUAAGUAAUUAGUUUUCUCUUAAUGUUGCCAAUAGAAGGCUUGAGCAGGAAGCUUGUAGCACUGAUCUAAUUGUGUGUACA: 0.504
CAUAUAAAUCUUGCUUAAAUUUUGUCCUAUCCUUUUGUUACCUUAUCAAAUGAAAUAUUACAGCACCUAGAAAAUAAUUUAGUUUUGCUUGCUUCCAUUGAUCAGUCUUU: 2.01
AAGCACCCCUAGAUAGUGUGAUUCUGUCAGAUAGCAUUUAUGCAAAAAUCUAUGAAGUUAAAAGAUCGUAGAAGCCAAAUGAAAUGUACAUAUCUACUGACUGAUGACAA: 0.263
GAGCAUCUGGGCCGGGCAUGGUGGCUCACGCCUGUAAUCCCAGCACUCUGGGAGGUCGAGGUGGGUGGGUCACCUGAGGUUGGGAGUUCGAGACCAGCCCGACCAACAUG: 0.389
ACAGAAUUCUUUCACACUUUUGCAGAAAUGUGUAUAUUUAAUGCUGUGCGACUGCUAAACUGCAGGUUUUUGUUGAAGGAACUAAAAGCAACUAGUUCACUCAUAGUCUA: 0.31
UGGAAAACCAAAUUUGUAAUAUCAUUGUAUUUUUUAUUAAAAGUUUUGUAAUAAAUUUCUAAAUUAUCUUCUGGUGUGGGACUUUAACAAACAUCCUAUUUUUAGUUUCA: 1.38
GAAGAGCCAGCAGUUGAGGCUCCUCAGUUUUAGUGCUGAAAUAAUAAACAGUGACAGGUCAACAGUAUCCUUAAUCUGUCUGAGUGUUCCUCCGCCUGGGGUUGGUGUGG: 1.34
UGCACUGAAAUAGAGCAGUAAGCUUGUGAUAAAGGCCAAUUCCAGGUAGCUCUUGAAGGUGAUAGCCAUCUACUUUCCAGUGGCUGCCAACCACAGGGAGUGCCAGUUAA: 0.19
GCAGUGCAUUGAAGGACCCAAGUCCUCAGCCUACUUUCCUACUUUCUGACUGUAGUAAAAGCUGCUUCCUGUCCUGUUCAAGUUGCUGCAGCAGGGGUCAUGCCAAGUCA: 0.354
GCCAGCUGGGAGCACUGGUGUGAACUCACCCUGGGAGCCAGUCCUCCACUCGACCCAGAAUGGAGCCUGCUCUCCGCGCCUACCCUUCCCGCCUCCCUCUCAGAGGCCUG: 0.288
UGCUAUGUUGCAGUUUGUUUGCUUGUUUUUUUCUUCUGAGCUUUGUUUCUAGUACACGAUAUGACGGGACCAAGUACAAGCUGGUGGUGGACAGAGCUGGGUGCCACAGU: 0.506

Block 2 — target: CCNA1, cyclin fold, Cln2 fusion (human); method: yeast growth competition, sequencing; matrix: yeast; notes: weak parent motif; baseline: not given; direction: higher = stronger binding; measurement: normalised enrichment score
Starting sequence: E2F3 docking peptide (human); PPAKRRLELGESG; partner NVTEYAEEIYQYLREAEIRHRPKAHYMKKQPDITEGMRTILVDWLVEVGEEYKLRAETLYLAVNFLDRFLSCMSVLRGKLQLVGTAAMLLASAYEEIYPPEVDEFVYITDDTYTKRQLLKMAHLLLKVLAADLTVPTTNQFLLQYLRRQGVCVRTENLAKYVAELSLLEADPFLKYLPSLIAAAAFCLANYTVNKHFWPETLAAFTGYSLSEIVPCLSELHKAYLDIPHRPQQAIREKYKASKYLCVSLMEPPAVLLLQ
PPAARRLELGESG [K4A]: 0.417
PPAKARLELGESG [R5A]: 0.305
APAKRRLELGESG [P1A]: 0.626
PPAKARAELGESG [R5A L7A]: 0.0367
PPAKRRLELGASG [E11A]: 0.547
PAAKRRLELGESG [P2A]: 0.431
PPAKKRLEFGESG [R5K L9F]: 1.65
PPAKRRLEFGESG [L9F]: 1.52
PPAKRRAELGESG [L7A]: 0.279

Block 3 — method: protein-binding microarray; form: double-stranded DNA, one strand shown; matrix: in vitro; tested at: 250 nM; notes: 60-bp whole probe; added: salmon DNA 0.4 mg/ml; baseline: random background probes; direction: higher = stronger binding; measurement: log fluorescence; constant ends, left off below: GCCTAGCAC … GTCTTGATTCGCTTGACGCTGCTG
Target: Interferon regulatory factor 7, full length, phosphomimetic (IRF7, Homo sapiens, UniProt Q92985, residues 1-503, S101K/S471D/S472D/S475D/S476D/S477D/S483D/S484D/S487D)
UniProt Q92985, sequence (whole entry, unmodified, looked up): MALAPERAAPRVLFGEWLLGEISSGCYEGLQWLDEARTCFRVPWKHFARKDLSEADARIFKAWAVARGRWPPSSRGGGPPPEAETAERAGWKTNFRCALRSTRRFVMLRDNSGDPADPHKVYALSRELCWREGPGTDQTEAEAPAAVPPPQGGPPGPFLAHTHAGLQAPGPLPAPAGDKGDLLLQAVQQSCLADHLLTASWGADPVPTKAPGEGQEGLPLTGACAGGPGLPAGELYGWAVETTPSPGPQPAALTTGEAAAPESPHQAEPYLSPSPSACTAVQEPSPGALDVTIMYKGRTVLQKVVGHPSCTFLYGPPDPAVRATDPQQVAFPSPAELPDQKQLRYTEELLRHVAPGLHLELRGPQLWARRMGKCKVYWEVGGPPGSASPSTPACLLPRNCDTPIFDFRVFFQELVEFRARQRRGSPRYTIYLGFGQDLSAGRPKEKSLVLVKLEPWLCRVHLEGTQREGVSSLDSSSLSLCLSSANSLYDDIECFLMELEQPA
TTGGGACTGGGGTTTCGGTTAGTGCTA: 4.97 z-score
AACGGTATCGGGTTTCGGGACGTGCTA: 3.76 z-score
GAGGGTCTCCTTATCCTGACGTGCTAG: -0.21 z-score
GACGGACTTGACTTTCGGGACGTGCTA: -0.0478 z-score
GACGGTTTAGGGTTTCGGGACGTGCTA: 2.16 z-score
TCCTTTATGTCCTGTCTACATGTGCTA: 0.653 z-score
GACGATCTCGGTATCGGGACGTGCTAG: 0.325 z-score
TTAGGATTCGACTATCGGTTAGTGCTA: 0.753 z-score
GACGCTCTCCTTTTCCTGACGTGCTAG: 0.873 z-score
AGTATGTTCACTATTTAAGAGTGCTAG: 0.328 z-score
GACGCACTGGGTATCGGGACGTGCTAG: -0.0119 z-score
TCACATTGAGATTTCCAACTGTGCTAG: 0.324 z-score
CTTCTCCTCTAGGTTCTCTGAGTGCTA: 0.599 z-score
GACGATTTCGGGTTTCGAGTCGTGCTA: 7.49 z-score
TCAAGTTTTCATTTTCTACTGTGCTAG: 3 z-score
GACTGTATCGGGTTTCGGGACGTGCTA: 2.25 z-score
TTAGGTCTCGGTCCCGGTTAGTGCTAG: 0.96 z-score
GAAGCTTCTTTTTTATTCTAGTGCTAG: 0.279 z-score
TTAGGTCTCCTACGGCTTTAGTGCTAG: -0.421 z-score
TCACTTTCCAACTCTGTTACTGTGCTA: 2.15 z-score
GATGGTTTCGGGACTGGGGACGTGCTA: 4.14 z-score
GACGGACTGGACTCTGGGGACGTGCTA: -0.588 z-score
GTCGGTTTCCTTTTCCTGACGTGCTAG: 8.18 z-score
TTAGGCTTCCTTTTCCTTTAGTGCTAG: 0.659 z-score
GACGATTTTAGACTGGAGACGTGCTAG: -0.382 z-score

Block 4 — method: competition protein-binding microarray; form: double-stranded DNA, one strand shown; matrix: in vitro; tested at: 2 µM; added: Pho4 competitor, 0.05 µM; direction: higher = stronger binding; measurement: fluorescence intensity; constant ends, left off below: … GTCTTGATTCGCTTGACGCTGCTG
Target: Centromere-binding protein 1, full length, His-tagged (CBF1, Saccharomyces cerevisiae, UniProt P17106, residues 1-351)
UniProt P17106, sequence (whole entry, looked up): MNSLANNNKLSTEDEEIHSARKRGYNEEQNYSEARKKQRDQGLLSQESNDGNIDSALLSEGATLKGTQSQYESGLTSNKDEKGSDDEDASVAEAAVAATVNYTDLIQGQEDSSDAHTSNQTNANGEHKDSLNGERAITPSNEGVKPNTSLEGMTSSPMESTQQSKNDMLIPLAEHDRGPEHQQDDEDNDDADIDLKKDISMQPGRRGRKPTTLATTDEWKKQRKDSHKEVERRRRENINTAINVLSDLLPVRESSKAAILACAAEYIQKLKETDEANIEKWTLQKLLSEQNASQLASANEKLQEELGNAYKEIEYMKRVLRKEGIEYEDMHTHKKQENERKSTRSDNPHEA
Notes: whole 60-bp probe, lowest competitor level
TTTTATTCCTGGAAAAGCGTGCAAATATTTTTCGAG: 144 a.u.
TGCGCAACAACTTGTCACTGGACTTTATGTCTAGAA: 86.3 a.u.
CGCTTCCCAGCTTTTCACGTGCGATGTGGACTAATA: 862 a.u.
AACCTACCATGGTAGCACATGAAGAAGCAACCACCC: 68.5 a.u.
AATGCACTTGATTTGCACGTGGGACCTGGGCGGCTA: 695 a.u.
GGGATATTCCACCATCACGTCTGCGCCAAGCCACAA: 77.4 a.u.
TTGGATCTGACTCCTCACGTGGCAAATCTAAAATTG: 1490 a.u.
CATACCCAACCTTTTCACGTGTCGTAAGATATTTGT: 835 a.u.
TGTCTGGAAGGGCCACACCCGGAATTGCAGGTCTAC: 44.6 a.u.
GTCTTGTCTCATTGTCTTGTGGGTGTCCCCACTTCA: 67.4 a.u.
CAACAAGGAGGATGGCATGTGGATACTACTTTCTTG: 90.1 a.u.
TCATCACCAGAAAGTGACATGACAAGAGATTCTGGT: 64.1 a.u.
TATCACTGAGCTGTTCTCGTGGCCGTTAGGTAAACC: 85.1 a.u.
CGGGGTTAAGTTTGCAATGTGGGTGGCTTGCAGCAG: 85.4 a.u.
TCCTTAATGCCCAAGCACATGGGTCAGGGTTCATTA: 77.3 a.u.
CTTCTGTAAATTTGACTGGTGGGTGGACGCGCCCCG: 69.5 a.u.
TACAGTCGTTGGGCCACCGTGACTCGTATCTGCGTC: 113 a.u.
AAGTGCAGCCGATTGGGCGTGCGATTCACCCACTCA: 51.7 a.u.
ATTAAAATCATTTAGTCCTTTATCTCTTATCCTTTT: 102 a.u.
GTCTTGTCTCATTTTCACGTGCCATTCCCCACTTCA: 929 a.u.
CGGGGTTAAGTTTGGTTGGTGGGTGGCTTGCAGCAG: 95.2 a.u.
CGTCCTAGTGATTGCCGGGTGGGTGCCATGAGGAAG: 76.2 a.u.
CATACCCAACCTTGGAGAGTGGGTGAAGATATTTGT: 75.7 a.u.
GAAACGTCGGGTAGTTTCGTGCCGACTTAAGTGCCT: 55.1 a.u.
AAATTACTAAGTTGATCAGTGGGTGACGCCGTATGA: 77 a.u.

Repeated from above (block 3):
TTGGGACTGGGGTTTCGGTTAGTGCTA: 4.97 z-score
GAAGCTTCTTTTTTATTCTAGTGCTAG: 0.279 z-score
GATGGTTTCGGGACTGGGGACGTGCTA: 4.14 z-score
GTCGGTTTCCTTTTCCTGACGTGCTAG: 8.18 z-score
GACGATTTCGGGTTTCGAGTCGTGCTA: 7.49 z-score
